Published values pooled from the literature.
Compare with care: the assays were run in different laboratories. Several values in a cell are separate wells, animals, samples, runs or records. ± gives the spread as reported.
ARID1B: AT-rich interactive domain-containing protein 1B (ARID1B, Homo sapiens, UniProt Q8NFD5)
UniProt Q8NFD5, sequence (whole entry, looked up): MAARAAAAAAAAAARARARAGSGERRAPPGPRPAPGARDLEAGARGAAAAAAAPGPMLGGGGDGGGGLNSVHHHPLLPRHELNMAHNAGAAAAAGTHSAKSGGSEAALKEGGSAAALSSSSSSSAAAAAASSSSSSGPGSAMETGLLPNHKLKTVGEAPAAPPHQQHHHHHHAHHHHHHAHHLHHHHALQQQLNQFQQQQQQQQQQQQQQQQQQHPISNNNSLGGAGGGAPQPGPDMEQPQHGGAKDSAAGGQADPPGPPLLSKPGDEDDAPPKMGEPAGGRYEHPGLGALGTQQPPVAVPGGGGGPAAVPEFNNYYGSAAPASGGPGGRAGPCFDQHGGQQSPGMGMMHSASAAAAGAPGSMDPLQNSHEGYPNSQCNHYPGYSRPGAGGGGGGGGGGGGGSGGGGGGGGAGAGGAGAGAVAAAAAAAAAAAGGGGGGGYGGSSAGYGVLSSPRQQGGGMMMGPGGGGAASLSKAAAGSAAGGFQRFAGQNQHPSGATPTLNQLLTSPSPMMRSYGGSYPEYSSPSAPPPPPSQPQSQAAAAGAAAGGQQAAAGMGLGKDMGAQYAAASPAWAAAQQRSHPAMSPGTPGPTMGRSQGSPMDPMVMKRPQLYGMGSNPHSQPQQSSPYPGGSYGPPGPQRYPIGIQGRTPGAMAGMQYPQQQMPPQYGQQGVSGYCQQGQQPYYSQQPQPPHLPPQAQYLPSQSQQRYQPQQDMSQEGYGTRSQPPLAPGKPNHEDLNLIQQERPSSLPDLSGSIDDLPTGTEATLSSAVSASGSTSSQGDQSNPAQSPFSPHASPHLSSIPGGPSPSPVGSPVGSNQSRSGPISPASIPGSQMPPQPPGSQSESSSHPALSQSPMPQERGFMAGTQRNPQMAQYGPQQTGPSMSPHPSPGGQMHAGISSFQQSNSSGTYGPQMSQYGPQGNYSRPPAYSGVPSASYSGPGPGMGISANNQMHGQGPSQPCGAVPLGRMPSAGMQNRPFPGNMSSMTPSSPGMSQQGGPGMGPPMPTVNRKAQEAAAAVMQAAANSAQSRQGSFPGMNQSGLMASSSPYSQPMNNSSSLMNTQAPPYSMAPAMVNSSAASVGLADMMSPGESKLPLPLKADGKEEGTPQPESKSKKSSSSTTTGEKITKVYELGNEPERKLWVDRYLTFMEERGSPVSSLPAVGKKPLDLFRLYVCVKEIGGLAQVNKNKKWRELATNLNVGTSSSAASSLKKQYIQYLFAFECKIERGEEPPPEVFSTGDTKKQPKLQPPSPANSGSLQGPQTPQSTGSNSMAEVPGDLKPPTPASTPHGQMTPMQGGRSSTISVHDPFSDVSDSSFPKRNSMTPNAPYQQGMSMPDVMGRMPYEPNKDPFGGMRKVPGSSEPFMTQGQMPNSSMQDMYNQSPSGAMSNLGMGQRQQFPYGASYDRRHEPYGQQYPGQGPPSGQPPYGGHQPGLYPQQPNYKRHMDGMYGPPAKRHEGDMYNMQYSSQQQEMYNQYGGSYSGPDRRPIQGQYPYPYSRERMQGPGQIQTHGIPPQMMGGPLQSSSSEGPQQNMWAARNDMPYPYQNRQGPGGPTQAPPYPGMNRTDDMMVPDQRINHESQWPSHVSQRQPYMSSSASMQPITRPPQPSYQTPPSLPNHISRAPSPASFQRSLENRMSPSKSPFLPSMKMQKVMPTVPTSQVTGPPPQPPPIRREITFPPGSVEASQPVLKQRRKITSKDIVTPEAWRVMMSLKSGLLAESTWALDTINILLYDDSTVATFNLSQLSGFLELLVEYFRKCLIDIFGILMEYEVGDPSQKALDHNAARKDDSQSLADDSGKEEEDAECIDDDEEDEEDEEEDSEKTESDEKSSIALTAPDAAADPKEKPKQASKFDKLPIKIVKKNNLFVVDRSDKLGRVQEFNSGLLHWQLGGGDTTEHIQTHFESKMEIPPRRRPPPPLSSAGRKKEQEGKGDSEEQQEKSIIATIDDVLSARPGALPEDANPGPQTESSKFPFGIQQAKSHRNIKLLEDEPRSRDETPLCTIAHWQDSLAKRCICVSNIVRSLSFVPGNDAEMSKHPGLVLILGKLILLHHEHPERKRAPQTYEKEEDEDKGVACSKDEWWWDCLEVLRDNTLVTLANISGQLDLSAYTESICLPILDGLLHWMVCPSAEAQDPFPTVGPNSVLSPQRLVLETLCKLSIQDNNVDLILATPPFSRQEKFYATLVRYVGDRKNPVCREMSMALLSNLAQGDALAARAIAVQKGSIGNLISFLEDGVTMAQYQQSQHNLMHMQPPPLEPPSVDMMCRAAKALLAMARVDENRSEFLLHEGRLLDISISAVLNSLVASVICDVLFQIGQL
gyrB with GyrA: DNA gyrase subunit B, with GyrA (gyrB, Mycobacterium tuberculosis, UniProt P9WG45)
UniProt P9WG45, sequence (whole entry, looked up): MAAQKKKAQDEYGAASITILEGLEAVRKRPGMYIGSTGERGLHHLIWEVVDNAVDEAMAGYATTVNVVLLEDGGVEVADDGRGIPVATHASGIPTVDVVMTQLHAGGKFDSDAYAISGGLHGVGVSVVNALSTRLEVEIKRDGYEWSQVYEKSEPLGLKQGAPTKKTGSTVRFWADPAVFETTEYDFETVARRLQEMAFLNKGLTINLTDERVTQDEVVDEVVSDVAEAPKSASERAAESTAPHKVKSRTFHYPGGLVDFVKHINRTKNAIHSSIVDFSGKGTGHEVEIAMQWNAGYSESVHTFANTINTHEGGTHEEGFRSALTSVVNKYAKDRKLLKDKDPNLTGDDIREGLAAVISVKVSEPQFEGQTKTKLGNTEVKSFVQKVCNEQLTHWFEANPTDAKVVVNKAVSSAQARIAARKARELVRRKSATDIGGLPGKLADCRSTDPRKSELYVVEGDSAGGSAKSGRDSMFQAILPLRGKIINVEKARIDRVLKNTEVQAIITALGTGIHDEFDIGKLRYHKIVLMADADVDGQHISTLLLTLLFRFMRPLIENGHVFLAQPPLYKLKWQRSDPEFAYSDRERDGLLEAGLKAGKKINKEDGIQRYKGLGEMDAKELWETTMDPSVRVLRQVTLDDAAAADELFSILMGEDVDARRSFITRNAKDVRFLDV
HA: Hemagglutinin (HA, Influenza A virus, UniProt P03452)
UniProt P55210, sequence (whole entry, looked up): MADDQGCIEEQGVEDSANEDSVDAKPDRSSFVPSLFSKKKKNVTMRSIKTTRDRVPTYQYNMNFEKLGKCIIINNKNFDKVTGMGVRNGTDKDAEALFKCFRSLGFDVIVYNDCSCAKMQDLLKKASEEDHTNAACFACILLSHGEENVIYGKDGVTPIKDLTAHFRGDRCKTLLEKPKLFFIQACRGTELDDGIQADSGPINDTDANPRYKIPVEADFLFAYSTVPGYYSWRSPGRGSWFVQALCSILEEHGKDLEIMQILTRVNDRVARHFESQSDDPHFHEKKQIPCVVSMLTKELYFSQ
UniProt P03452, sequence (whole entry, looked up): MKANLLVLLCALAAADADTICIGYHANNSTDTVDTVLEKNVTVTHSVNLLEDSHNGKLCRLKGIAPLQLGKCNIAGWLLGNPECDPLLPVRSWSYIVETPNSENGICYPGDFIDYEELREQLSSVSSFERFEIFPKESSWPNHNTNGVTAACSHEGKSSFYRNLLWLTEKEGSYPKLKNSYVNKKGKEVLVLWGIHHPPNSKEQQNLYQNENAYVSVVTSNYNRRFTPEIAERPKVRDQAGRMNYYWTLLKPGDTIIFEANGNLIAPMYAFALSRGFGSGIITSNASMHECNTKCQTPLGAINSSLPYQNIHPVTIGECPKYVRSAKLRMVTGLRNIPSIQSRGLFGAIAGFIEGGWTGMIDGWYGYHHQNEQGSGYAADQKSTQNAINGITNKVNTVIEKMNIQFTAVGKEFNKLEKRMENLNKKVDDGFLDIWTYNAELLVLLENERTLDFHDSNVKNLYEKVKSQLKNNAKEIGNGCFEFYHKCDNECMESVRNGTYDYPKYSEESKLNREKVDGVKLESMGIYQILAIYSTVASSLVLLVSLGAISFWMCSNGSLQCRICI
UniProt Q13418, sequence (whole entry, looked up): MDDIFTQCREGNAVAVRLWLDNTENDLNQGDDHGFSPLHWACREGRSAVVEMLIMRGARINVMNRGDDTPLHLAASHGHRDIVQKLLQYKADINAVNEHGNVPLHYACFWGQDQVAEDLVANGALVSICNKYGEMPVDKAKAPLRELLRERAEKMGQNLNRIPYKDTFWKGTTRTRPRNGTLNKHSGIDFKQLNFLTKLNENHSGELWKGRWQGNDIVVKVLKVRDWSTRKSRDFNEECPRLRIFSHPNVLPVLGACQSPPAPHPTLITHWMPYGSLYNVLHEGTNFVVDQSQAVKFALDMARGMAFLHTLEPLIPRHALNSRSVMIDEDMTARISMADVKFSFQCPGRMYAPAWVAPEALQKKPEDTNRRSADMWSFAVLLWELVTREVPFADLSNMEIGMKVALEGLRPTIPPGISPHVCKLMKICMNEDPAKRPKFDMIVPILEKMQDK
UniProt P41143, sequence (whole entry, unmodified, looked up): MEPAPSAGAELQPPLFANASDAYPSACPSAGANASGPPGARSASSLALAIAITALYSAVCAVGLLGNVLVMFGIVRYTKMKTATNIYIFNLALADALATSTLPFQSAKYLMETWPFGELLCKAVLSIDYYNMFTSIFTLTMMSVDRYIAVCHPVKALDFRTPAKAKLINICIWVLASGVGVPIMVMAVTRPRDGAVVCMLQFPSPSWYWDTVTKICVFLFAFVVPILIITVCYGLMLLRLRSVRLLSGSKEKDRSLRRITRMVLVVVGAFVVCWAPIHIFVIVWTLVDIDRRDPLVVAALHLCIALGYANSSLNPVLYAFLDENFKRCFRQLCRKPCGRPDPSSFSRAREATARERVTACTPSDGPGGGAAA

The CC50 of `CC(C)(C)C(=O)OCOP(=O)(OCOC(=O)C(C)(C)C)C1CCCN(O)C1=O` (stereo not shown) is reported as 62.8 µM (NCI-H522).
The IC50 of `CC(C)C[C@@H]1NC(=O)CN(C)C(=O)[C@H](Cc2c[nH]c3ccccc23)NC(=O)[C@H](CCC(=O)O)NC(=O)[C@H](Cc2ccccc2)N(C)C(=O)[C@H](Cc2ccccc2)NC(=O)CSC[C@@H](C(N)=O)NC(=O)[C@H](CCCCN)NC(=O)[C@H](C(C)C)NC(=O)[C@H](Cc2ccc(O)cc2)NC(=O)[C@H](Cc2ccc(O)cc2)NC(=O)[C@H](C(C)C)NC(=O)[C@H](C)N(C)C(=O)[C@H](CCCNC(=N)N)NC1=O` is reported as > 1 µM (ARID1B; binding, TR-FRET competition; 1% DMSO).
For `O=C(CCc1c(C(=O)Nc2ccc(I)cc2)[nH]c2ccc(Cl)cc12)Nc1ccc(I)cc1`, the IC50 was 201 µM (gyrB with GyrA).
`CC1=C[C@H]2c3c(O)cc(CCc4ccccc4)cc3OC(C)(C)[C@H]2CC1` has an IC50 of 36.3 ± 2.7 µM (FAAH (Sus scrofa, UniProt Q9TUI8); inhibitor).
For `CC(C)C[C@@H]1NC(=O)CN(C)C(=O)[C@H](Cc2c[nH]c3ccccc23)NC(=O)[C@H](CCC(=O)O)NC(=O)[C@H](Cc2ccccc2)N(C)C(=O)[C@H](Cc2ccccc2)NC(=O)CSC[C@@H](C(N)=O)NC(=O)[C@H](CCCCN)NC(=O)[C@H](C)NC(=O)[C@H](Cc2ccc(O)cc2)NC(=O)[C@H](Cc2ccc(O)cc2)NC(=O)[C@H](C(C)C)NC(=O)[C@H](Cc2ccccc2)N(C)C(=O)[C@H](CCCNC(=N)N)NC1=O`, the IC50 was 0.02 µM (ARID1B; binding, TR-FRET competition; 1% DMSO).
For `CCN(CC)C(=O)c1ccc(C(c2cccc(O)c2)N2CC(C)N(Cc3ccccc3)CC2C)cc1` (stereo not shown), the EC50 was 0.00015 ± 3e-05 µM (OPRD1 (Homo sapiens, UniProt P41143, K214A); agonist).
For `O=C(c1c(Cl)cc(Cl)cc1Cl)N1CCOC(c2ccccc2)C1` (stereo not shown), the IC50 was 1 µM (HA; A/Puerto Rico/8/1934).
`O=C(CCc1c(C(=O)Nc2ccc(F)cc2)[nH]c2ccc(Cl)cc12)Nc1ccc(F)cc1` gave an IC50 of 8.4 µM (gyrB with GyrA).
`COc1ccccc1-c1n[nH]c2nc(NC3CCN(C(=O)Cc4ccc(F)cc4F)CC3)ncc12` gave a relative abundance of 0.4 (bead binding, competition bead pull-down, item: LINJ.25.2230; Leishmania donovani axenic amastigote extract; 10 µM; baseline: vehicle).
`O=C1NC2(CC2)COc2ncc(F)cc2[C@H]2COCCN2c2ccn3ncc1c3n2`: “organ-to-brain weight ratio” 53.1 ± 14.4% (Sprague-Dawley rat, female, spleen; oral, 2.5 mg/kg/day, 4 weeks, end of treatment).
`Cc1ccc(N2CC3CN(C)CC3C2)cc1C(=O)N[C@H](C)c1cc(-c2cnn(C)c2)nc2ccccc12` (stereo partly shown) has a viability of 100% (African green monkey cells; 31.25 µM).
`CC(C)CC(C(=O)N1CC2(CC1C#N)C(=O)Nc1ccccc12)N(C)C(=O)c1cc2c(F)cc(F)c(F)c2[nH]1` (stereo not shown) gave an IC50 of 4.69 µM and 4.7 µM (Caspase-7 (CASP7, Homo sapiens, UniProt P55210); enzyme activity, inhibitor).
`CC(C)c1nc2cc(O)ccc2c(=O)n1-c1ccc(C#N)cc1` gave an IC50 of 4.02 µM (TRPV1 (Homo sapiens, UniProt Q8NER1, Y511F); ion current, antagonist, whole-cell patch clamp; mutant Y511F, +80 mV, together with: pH 5 stimulus).
With `O=C(CCc1c(C(=O)Nc2ccc(Br)cc2)[nH]c2ccc(Cl)cc12)Nc1ccc(Br)cc1` the IC50 was 6.8 µM (gyrB with GyrA).
With `O=C(c1ccc(N=S(=O)(F)N2Cc3cccnc3C2)cc1Cl)N1CCO[C@@H](c2ccccc2)C1` (stereo partly shown) the IC50 was 0.22 µM (HA; A/Puerto Rico/8/1934).
With `CS(C)(=O)=Nc1ccc(-c2ccc(-c3nc4cc(O[C@@H]5CO[C@H]6[C@@H]5OC[C@H]6O)[nH]c4cc3F)cc2)cc1` the inhibition was 5% (BRAF (Homo sapiens, UniProt P15056); enzyme activity, inhibitor; 10 µM).
With `CC(C)C[C@@H]1NC(=O)CN(C)C(=O)[C@H](Cc2c[nH]c3ccccc23)NC(=O)[C@H](CCC(=O)O)NC(=O)[C@H](Cc2ccccc2)N(C)C(=O)[C@H](C)NC(=O)CSC[C@@H](C(N)=O)NC(=O)[C@H](CCCCN)NC(=O)[C@H](C(C)C)NC(=O)[C@H](Cc2ccc(O)cc2)NC(=O)[C@H](Cc2ccc(O)cc2)NC(=O)[C@H](C(C)C)NC(=O)[C@H](Cc2ccccc2)N(C)C(=O)[C@H](CCCNC(=N)N)NC1=O` the IC50 was > 1 µM (ARID1B; binding, TR-FRET competition; 1% DMSO).
The IC50 of `Cc1cc(C)cc(NC(=O)CCc2c(C(=O)Nc3cc(C)cc(C)c3)[nH]c3ccc(Cl)cc23)c1` is reported as 13.5 µM (gyrB with GyrA).
With `CC(C)C[C@@H]1NC(=O)CN(C)C(=O)[C@H](Cc2c[nH]c3ccccc23)NC(=O)[C@H](CCC(=O)O)NC(=O)[C@H](Cc2ccccc2)N(C)C(=O)[C@H](Cc2ccccc2)NC(=O)CSC[C@@H](C(N)=O)NC(=O)[C@H](CCCCN)NC(=O)[C@H](C(C)C)NC(=O)[C@H](Cc2ccc(O)cc2)NC(=O)[C@H](Cc2ccc(O)cc2)NC(=O)[C@H](C)NC(=O)[C@H](Cc2ccccc2)N(C)C(=O)[C@H](CCCNC(=N)N)NC1=O` the IC50 was 0.01 µM (ARID1B; binding, TR-FRET competition; 1% DMSO).
`O=C(CCc1c(C(=O)Nc2ccccc2)[nH]c2ccc(Cl)cc12)Nc1ccccc1` has an IC50 of 23.4 µM (gyrB with GyrA).
The IC50 of `CC(C)C[C@@H]1NC(=O)CN(C)C(=O)[C@H](Cc2c[nH]c3ccccc23)NC(=O)[C@H](C)NC(=O)[C@H](Cc2ccccc2)N(C)C(=O)[C@H](Cc2ccccc2)NC(=O)CSC[C@@H](C(N)=O)NC(=O)[C@H](CCCCN)NC(=O)[C@H](C(C)C)NC(=O)[C@H](Cc2ccc(O)cc2)NC(=O)[C@H](Cc2ccc(O)cc2)NC(=O)[C@H](C(C)C)NC(=O)[C@H](Cc2ccccc2)N(C)C(=O)[C@H](CCCNC(=N)N)NC1=O` is reported as 0.01 µM (ARID1B; binding, TR-FRET competition; 1% DMSO).
With `CN(C)[C@H]1C[C@@]23CC[C@@]4(O2)C(=CC[C@]2(C)[C@@H](c5ccc6ccncc6c5)CC[C@H]24)C=C3[C@@H](O)[C@@H]1O` the inhibition was 4% (ILK (Homo sapiens, UniProt Q13418); probe labelling, inhibitor, KiNativ ATP probe MS; native lysate; 0.1 µM).
